Assay results collected from several papers.
Every numbered part comes from another study and shows a few of its results, in no order. Substitutions count along the parent as printed.

Block 1
Target: CCNA1, cyclin fold, Cln2 fusion (human)
Method: yeast growth competition, sequencing
Sample: yeast
Setting: weak parent motif
Reference: not given
Direction: higher = stronger binding
Parent: SLBP docking peptide (human); ARYKRKLLINDFG; partner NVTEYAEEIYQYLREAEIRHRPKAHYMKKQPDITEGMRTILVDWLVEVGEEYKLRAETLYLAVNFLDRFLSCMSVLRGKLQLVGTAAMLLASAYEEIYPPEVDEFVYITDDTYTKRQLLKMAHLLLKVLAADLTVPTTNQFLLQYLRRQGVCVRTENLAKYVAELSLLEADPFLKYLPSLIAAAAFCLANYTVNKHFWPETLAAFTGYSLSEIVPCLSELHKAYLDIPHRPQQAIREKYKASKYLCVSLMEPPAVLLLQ
Substitution | normalised enrichment score
N10V | 0.184
A1H | 0.316
K6I | 0.213
L7S | 0.273
Y3M | 0.649
N10E | 0.772
Y3N | 0.396
N10M | 0.28
R2H | 0.399
R5I | 0.268
R5C | 0.723
L7A | 0.088
R2A | 0.203
F12C | 0.0742
K4G | 0.225
Y3I | 0.579
N10K | 0.335
K4I | -0.165
A1Y | -0.145
R2L | 0.263
L8M | 0.487
K6F | 0.097
G13M | 0.544
F12W | 0.166
L8A | 0.272

Block 2
Target: Protein C-ets-1 (ETS1, Homo sapiens, UniProt P14921, residues 1-441, K379A, full length assumed)
Method: protein-binding microarray
Form: double-stranded DNA, one strand shown
Sample: in vitro
Concentration: not given
Setting: k-mer, scored over probes, only values ≥0.25
Direction: higher = stronger binding
Target sequence (chain): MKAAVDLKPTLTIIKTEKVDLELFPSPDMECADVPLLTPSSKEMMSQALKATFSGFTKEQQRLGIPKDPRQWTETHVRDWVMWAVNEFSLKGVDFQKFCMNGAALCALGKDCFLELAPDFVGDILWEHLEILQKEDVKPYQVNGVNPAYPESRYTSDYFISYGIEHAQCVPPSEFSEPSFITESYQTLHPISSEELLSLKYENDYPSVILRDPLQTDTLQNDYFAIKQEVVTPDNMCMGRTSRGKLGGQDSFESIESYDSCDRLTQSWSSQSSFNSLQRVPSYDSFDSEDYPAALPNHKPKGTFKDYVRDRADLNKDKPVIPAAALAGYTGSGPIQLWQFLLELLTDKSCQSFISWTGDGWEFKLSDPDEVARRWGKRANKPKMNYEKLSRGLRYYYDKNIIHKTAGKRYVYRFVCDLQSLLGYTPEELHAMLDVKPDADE
Strand | E-score
ATCCCCGG | 0.284
ATATGACA | 0.259
AGGTACCG | 0.352
ATTACCGA | 0.292
ATTGTCGG | 0.303
CTCCGGTA | 0.41
CAGACCGG | 0.413
ATAATACC | 0.357
TGTATAAA | 0.311
GGATGTAA | 0.27
ACTACAGA | 0.281
GCAACGAC | 0.251
CGCATGCC | 0.256
CCGACCGG | 0.372
ATGTGTTG | 0.251
TGCAACAA | 0.257
ATATAGTC | 0.257
CGACCGAC | 0.31
CGTCCGGC | 0.28
ACTACACA | 0.265
GTCCCGGA | 0.261
CCCGGCCG | 0.379
GTAACACA | 0.267

Block 3
Target: ABI1, truncated, D143A, DHFR fusion (Arabidopsis thaliana)
Method: DHFR PCA, deep sequencing
Sample: yeast
Setting: methotrexate growth selection, single substitutions
Together with: (+)-ABA 710 µM
Reference: wild-type fitted maximum
Direction: higher = stronger binding
Parent: PYL1, truncated, DHFR fusion (Arabidopsis thaliana); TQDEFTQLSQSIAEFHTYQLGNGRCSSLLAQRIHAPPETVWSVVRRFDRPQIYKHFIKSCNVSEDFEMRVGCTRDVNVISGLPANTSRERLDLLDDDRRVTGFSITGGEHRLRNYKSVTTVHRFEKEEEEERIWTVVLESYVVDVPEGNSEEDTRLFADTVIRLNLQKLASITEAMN
Substitution | relative binding score [%]
T101F | 117
Q10I | 88.1
K126C | 107
T135Y | -3.84
R123M | 102
L94T | 72.7
Y53T | 55.7
R24S | 99.8
S171C | 94.3
S59L | 89.4
N165I | -14.6
V62D | 50.6
D48V | 32.4
D65A | 103
L164C | 99.8
E4C | 95.5
E64V | 101

Block 4
Target: Interferon regulatory factor 3, full length, phosphomimetic (IRF3, Homo sapiens, UniProt Q14653, residues 1-427, S386D/S396D/S398D/S402D/T404D/S405D)
UniProt Q14653, sequence (whole entry, unmodified, looked up): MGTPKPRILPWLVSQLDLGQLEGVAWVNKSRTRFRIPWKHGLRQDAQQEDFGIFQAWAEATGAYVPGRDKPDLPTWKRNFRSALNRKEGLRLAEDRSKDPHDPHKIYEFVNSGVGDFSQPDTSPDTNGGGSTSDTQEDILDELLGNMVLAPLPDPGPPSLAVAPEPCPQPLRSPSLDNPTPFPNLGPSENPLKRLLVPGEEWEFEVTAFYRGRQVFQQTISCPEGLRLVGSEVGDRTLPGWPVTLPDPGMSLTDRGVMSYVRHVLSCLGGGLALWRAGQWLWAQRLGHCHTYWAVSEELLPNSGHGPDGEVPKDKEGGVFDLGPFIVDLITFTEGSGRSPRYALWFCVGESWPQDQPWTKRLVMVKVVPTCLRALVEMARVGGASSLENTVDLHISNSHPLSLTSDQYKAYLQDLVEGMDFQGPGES
Method: protein-binding microarray
Form: double-stranded DNA, one strand shown
Sample: in vitro
Concentration: 2540 nM top
Setting: 60-bp whole probe
Together with: salmon DNA 0.4 mg/ml
Reference: random background probes
Direction: higher = stronger binding
Shared flanks, not repeated: GCCTAGCAC … GTCTTGATTCGCTTGACGCTGCTG
Strand | fitted relative affinity [z-score]
GACGGTATCCTTATCCTGAGGTGCTAG | 5.1
TTAGGTTTTCTACTGCTTTAGTGCTAG | 0.577
GACGATTTCGGCACTGGAGACGTGCTA | 1.04
GGAGGAGCGGGACTGCCACCGTGCTAG | -0.699
GACGGACTGCGACTGGGGACGTGCTAG | -0.835
GACGGTATTGGGTTTCGGGACGTGCTA | 1.48
TTAGGTTTCGGATCCGGTTAGTGCTAG | 8.02
GACGGTATCGGTTTTCGGGACGTGCTA | 5.48
TTAGGTAGCGGGTTTCGGTTAGTGCTA | 2.9
GGCTTGACGTCATCCCCTTGGTGCTAG | -0.899
TTAGGTCTACTTATCCTTTAGTGCTAG | 0.587
GCTAGTTCAGTTCTCTAGAAGTGCTAG | 1.16
GACGGTATCGACTTTCGGGCCGTGCTA | 0.868
TTAGGTCTCCTTCTACTTTAGTGCTAG | 2.77
GACGGTTTCGGGTTTCGGGAAGTGCTA | 6.18
GGCGATCTCAGTTTCGAGACGTGCTAG | 2.08

Block 5
Target: ATF7, bZIP domain (human)
Method: DHFR protein complementation
Sample: yeast
Setting: single substitutions, most at no-binding floor
Reference: wild-type JUN-FOS pair
Direction: higher = stronger binding
Parent: JUN, bZIP domain (human); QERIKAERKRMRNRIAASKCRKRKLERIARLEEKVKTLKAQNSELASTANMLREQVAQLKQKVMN; partner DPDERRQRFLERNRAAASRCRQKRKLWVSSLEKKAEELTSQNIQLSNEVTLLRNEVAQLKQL
Substitution | binding fitness
R53T | -1.2 natural log
L38T | -1.37 natural log
L59R | -1.47 natural log
N42I | -1.45 natural log
K39M | -1.04 natural log
E54D | -1.17 natural log
L38R | -1.43 natural log
M51D | -0.858 natural log
S43F | -0.957 natural log
S43C | -0.99 natural log
S47P | -1.5 natural log
K34W | -1.02 natural log
N42G | -1.4 natural log
T37K | -0.921 natural log
M51P | -1.53 natural log
K36V | -1.13 natural log
S47E | -0.615 natural log
A57G | -1.18 natural log
T48A | -1.05 natural log
V56P | -1.5 natural log
A57W | -1.25 natural log
E32P | -1.34 natural log
Q55D | -1.37 natural log
S43Y | -1.03 natural log
L52C | -1.53 natural log
